{"data": "Measured values gathered from unrelated publications", "note": "Numbered parts are unrelated; each lists some results of a single study.", "UniProt P42680, sequence (whole entry, looked up)": "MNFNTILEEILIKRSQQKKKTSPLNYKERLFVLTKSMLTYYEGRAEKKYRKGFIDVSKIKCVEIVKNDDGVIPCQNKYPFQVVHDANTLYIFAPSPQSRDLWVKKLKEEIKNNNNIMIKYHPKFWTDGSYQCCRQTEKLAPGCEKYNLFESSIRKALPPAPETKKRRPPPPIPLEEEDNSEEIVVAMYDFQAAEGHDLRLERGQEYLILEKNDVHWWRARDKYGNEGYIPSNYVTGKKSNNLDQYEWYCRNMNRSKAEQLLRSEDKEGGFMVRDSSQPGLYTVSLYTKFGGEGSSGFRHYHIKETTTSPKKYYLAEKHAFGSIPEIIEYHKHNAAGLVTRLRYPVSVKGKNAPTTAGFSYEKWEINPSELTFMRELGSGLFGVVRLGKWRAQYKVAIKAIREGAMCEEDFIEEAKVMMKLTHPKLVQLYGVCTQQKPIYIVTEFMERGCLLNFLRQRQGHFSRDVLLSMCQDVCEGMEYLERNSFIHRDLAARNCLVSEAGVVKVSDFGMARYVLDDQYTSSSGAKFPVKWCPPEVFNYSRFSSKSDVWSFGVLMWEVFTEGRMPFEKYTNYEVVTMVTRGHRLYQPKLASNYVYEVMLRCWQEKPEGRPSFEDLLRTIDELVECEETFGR", "UniProt P42679, sequence (whole entry, looked up)": "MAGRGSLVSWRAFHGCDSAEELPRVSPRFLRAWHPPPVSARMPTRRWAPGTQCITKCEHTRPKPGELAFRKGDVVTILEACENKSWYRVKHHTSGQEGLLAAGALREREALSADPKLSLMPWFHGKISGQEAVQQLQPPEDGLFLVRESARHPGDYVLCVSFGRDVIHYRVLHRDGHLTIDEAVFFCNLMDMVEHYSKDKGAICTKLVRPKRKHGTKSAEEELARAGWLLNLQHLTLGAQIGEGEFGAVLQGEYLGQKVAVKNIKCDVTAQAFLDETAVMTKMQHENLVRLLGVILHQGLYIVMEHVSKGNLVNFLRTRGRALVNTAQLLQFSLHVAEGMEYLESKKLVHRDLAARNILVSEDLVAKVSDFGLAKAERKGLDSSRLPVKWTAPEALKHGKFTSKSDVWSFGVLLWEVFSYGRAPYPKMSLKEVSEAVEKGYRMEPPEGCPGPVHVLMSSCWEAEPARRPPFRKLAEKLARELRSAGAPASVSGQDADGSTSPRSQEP", "UniProt O14757, sequence (whole entry, looked up)": "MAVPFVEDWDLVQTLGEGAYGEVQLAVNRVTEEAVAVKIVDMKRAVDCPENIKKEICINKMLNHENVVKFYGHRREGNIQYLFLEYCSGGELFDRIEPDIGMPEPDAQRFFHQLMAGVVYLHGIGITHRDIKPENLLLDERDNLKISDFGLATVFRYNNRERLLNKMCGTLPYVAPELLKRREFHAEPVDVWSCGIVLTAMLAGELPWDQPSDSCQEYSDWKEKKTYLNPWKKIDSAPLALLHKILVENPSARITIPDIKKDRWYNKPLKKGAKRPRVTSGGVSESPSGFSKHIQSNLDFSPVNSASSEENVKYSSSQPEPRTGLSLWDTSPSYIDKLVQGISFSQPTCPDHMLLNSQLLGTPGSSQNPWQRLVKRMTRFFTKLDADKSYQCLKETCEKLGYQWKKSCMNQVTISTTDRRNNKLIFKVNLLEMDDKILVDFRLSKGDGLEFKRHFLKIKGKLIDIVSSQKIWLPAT", "UniProt O95835, sequence (whole entry, looked up)": "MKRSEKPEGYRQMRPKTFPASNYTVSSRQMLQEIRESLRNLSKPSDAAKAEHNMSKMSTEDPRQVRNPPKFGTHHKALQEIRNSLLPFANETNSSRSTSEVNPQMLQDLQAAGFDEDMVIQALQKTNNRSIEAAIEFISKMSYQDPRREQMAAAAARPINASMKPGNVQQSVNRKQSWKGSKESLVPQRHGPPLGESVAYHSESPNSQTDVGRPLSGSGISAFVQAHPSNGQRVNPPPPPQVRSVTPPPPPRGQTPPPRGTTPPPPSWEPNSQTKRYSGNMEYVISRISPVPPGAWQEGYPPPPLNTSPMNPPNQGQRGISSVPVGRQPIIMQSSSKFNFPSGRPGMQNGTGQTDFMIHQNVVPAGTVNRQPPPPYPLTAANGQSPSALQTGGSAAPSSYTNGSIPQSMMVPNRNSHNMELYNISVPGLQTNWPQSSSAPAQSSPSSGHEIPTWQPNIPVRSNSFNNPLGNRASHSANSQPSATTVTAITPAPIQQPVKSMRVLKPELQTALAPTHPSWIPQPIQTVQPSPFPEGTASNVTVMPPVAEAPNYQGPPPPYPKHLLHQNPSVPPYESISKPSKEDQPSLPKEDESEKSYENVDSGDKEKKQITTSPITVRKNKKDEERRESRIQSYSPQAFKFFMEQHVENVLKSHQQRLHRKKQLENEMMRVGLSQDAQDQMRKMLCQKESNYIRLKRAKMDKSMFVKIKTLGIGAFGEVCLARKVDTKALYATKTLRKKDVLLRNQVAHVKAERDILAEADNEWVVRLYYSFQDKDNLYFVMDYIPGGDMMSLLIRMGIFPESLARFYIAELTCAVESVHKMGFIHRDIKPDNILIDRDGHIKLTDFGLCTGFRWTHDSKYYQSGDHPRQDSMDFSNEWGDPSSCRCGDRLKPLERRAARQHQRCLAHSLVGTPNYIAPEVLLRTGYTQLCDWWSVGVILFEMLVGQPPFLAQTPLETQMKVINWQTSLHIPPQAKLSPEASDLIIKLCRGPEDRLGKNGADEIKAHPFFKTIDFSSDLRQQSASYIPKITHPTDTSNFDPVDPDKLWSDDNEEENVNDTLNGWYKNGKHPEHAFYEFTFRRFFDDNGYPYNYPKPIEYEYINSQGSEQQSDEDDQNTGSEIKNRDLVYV", "UniProt Q9H4B4, sequence (whole entry, looked up)": "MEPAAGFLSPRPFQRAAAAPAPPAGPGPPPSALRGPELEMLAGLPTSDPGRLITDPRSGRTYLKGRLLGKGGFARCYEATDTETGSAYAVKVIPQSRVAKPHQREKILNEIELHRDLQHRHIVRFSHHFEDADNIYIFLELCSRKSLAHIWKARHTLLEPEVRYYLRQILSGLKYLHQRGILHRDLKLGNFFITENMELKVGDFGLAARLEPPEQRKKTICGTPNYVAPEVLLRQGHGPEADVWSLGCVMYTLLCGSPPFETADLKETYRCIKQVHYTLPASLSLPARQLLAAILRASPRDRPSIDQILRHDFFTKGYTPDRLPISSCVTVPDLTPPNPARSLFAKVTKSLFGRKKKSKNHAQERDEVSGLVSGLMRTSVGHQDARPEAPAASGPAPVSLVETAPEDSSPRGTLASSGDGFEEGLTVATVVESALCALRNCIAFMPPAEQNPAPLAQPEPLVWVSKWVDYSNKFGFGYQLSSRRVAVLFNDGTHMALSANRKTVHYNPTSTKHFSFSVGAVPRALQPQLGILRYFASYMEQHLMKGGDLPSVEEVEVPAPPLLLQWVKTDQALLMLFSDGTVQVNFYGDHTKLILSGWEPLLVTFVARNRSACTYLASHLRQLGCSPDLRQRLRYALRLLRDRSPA"}
{"data": "Block 1", "Structure (SMILES)": "COc1cc(C(=O)N2CCC(N3CCN(C)CC3)CC2)ccc1Nc1ncc2c(n1)N(C)c1ccccc1C(=O)N2C", "method": "KINOMEscan", "concentration": "10 µM", "baseline": "DMSO control", "direction": "lower = stronger binding"}
{"target": "MLK2", "binding": "100%"}
{"target": "NEK3", "binding": "100%"}
{"target": "WEE1", "binding": "100%"}
{"target": "TAOK1", "binding": "28%"}
{"target": "MARK2", "binding": "100%"}
{"target": "FGFR1", "binding": "86%"}
{"target": "PDGFRB", "binding": "100%"}
{"data": "Block 2", "target": "Fibroblast growth factor receptor 2 (FGFR2, Homo sapiens, UniProt P21802)", "effect on": "enzyme activity", "mode": "inhibitor", "concentration": "0.5 µM", "baseline": "control", "UniProt P21802, sequence (whole entry, looked up)": "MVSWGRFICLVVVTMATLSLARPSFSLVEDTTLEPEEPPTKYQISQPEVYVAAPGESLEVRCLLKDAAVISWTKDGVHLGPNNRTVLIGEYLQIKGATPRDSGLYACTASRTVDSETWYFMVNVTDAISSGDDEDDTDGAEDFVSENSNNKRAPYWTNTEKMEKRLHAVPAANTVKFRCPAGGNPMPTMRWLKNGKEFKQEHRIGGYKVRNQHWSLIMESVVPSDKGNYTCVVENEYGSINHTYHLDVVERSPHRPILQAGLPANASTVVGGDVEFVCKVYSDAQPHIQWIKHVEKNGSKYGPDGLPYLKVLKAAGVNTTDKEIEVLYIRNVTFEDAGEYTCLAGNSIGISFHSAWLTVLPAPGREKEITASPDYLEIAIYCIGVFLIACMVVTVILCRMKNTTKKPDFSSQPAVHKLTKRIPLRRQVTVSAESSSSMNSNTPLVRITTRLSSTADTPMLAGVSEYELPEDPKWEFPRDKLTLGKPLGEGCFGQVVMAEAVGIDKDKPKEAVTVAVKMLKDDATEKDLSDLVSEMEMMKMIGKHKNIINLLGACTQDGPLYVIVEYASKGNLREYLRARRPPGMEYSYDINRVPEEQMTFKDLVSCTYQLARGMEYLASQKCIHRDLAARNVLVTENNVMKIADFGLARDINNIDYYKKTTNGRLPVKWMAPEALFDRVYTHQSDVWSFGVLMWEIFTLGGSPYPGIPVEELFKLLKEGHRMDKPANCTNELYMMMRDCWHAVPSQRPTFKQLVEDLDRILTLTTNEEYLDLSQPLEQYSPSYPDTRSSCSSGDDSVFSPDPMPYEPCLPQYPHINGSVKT"}
{"SMILES": "c1cc(-c2cnn3cc(-c4ccc(OCCN5CCCCC5)cc4)cnc23)ccn1", "remaining activity [%]": 80.4}
{"SMILES": "N#C/C(=C(/N)SC1C=CC=CC1)c1cccc(C(O)c2ccncc2)c1 (centres unmarked)", "remaining activity [%]": 99.7}
{"SMILES": "C[C@@H](N)[C@H]1CC[C@H](C(=O)Nc2ccncc2)CC1", "remaining activity [%]": 95.7}
{"SMILES": "O=C1NC(=O)/C(=C/c2ccc3c(c2)OC(F)(F)O3)S1", "remaining activity [%]": 97.6}
{"data": "Block 3", "Compound": "Cn1nc(C(F)(F)F)cc1-c1cnc(N2CCc3cc(S(=O)(=O)Nc4c(F)cc(Cl)cc4F)cc(N4CCCC4=O)c32)nc1", "method": "competition with immobilised ligand", "concentration": "1 µM"}
{"target": "CDC42BPA (Homo sapiens, UniProt Q5VT25)", "assay": "cell-free assay", "remaining binding [%]": 100}
{"target": "FLT3 (Homo sapiens, UniProt P36888, R834Q)", "assay": "cell-free assay", "remaining binding [%]": 97}
{"target": "Tyrosine-protein kinase ABL1, non-phosphorylated (ABL1, Homo sapiens, UniProt P00519, T315I)", "assay": "cell-free assay", "remaining binding [%]": 74}
{"target": "LATS1 (Homo sapiens, UniProt O95835)", "assay": "cell-free assay", "remaining binding [%]": 99}
{"target": "PLK3 (Homo sapiens, UniProt Q9H4B4)", "assay": "cell-free assay", "remaining binding [%]": 79}
{"target": "TEC (Homo sapiens, UniProt P42680)", "assay": "binding", "remaining binding [%]": 79}
{"target": "CHEK1 (Homo sapiens, UniProt O14757)", "assay": "cell-free assay", "remaining binding [%]": 100}
{"target": "MATK (Homo sapiens, UniProt P42679)", "assay": "cell-free assay", "remaining binding [%]": 91}
{"data": "Mixed results"}
{"SMILES": "CC(=O)N[C@@H](Cc1c[nH]c2ccccc12)C(=O)N[C@@H](CCC(=O)C=[N+]=[N-])C(=O)OC(C)C", "assay": "histopathology", "test system": "mouse C57BL/6 CES1-/-, GI tissue", "setting": "subcutaneous, 0.26 mg/kg", "how to read": "direction not given", "measurement": "GI epithelial change score", "result": 0}
